Assay results gathered from unrelated publications.
Lines come from different studies, so protocols differ. ± marks the error that the study gave.
UCHL1: Ubiquitin carboxyl-terminal hydrolase isozyme L1 (UCHL1, Homo sapiens, UniProt P09936)
UniProt P09936, sequence (whole entry, looked up): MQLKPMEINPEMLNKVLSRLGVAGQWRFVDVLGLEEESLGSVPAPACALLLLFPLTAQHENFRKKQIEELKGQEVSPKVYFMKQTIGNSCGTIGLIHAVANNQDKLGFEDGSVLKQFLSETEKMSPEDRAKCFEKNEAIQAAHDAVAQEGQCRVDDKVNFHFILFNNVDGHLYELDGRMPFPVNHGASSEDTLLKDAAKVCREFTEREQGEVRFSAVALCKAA

| SMILES | target or system | test | system | setting | how to read | measurement | result |
| --- | --- | --- | --- | --- | --- | --- | --- |
| CC(C)n1c(/C=C/C(O)CC(O)CC(=O)O)c(-c2ccc(F)cc2)c2ccccc21 (centres unmarked) | – | – | human | oral, 20 mg, alone, control phase | – | mean residence time | 3.43 ± 1.72 h |
| C[C@H](CCC(=O)O)[C@H]1CC[C@H]2[C@@H]3[C@H](O)C[C@@H]4C[C@H](O)CC[C@]4(C)[C@H]3CC[C@]12C | – | – | human, plasma | oral, dose not given, control | – | mean daily plasma concentration | 582 ± 140 nM |
| CCCC1CCC(c2ccc(OCC)c(F)c2F)CC1 (centres unmarked) | – | – | human mother-newborn pairs, cord serum | – | – | mean serum concentration | 1.74 ng/mL |
| Cc1ccc(O)c(-n2nc3ccccc3n2)c1 | – | exposure assessment | human, age 2-3 years | spray sunscreen | – | mean daily dermal uptake | 1210 ng/kg body weight/day |
| CC(C)CCC[C@@H](C)[C@H]1CC[C@H]2[C@@H]3C(O)CC4=CC(=O)CC[C@]4(C)[C@H]3CC[C@]12C (some centres unmarked) | – | – | human, plasma | oral, dose not given, control | – | mean daily plasma concentration | 76 ± 13.9 nM |
| CCCC1CCC(c2ccc(-c3ccc(F)c(F)c3)cc2)CC1 (centres unmarked) | – | – | human mother-newborn pairs, female fetuses, cord serum | – | – | mean serum concentration | 0.59 ng/mL |
| C[C@H](CCC(=O)NCC(=O)O)[C@H]1CC[C@H]2[C@@H]3CC[C@@H]4C[C@H](OS(=O)(=O)O)CC[C@]4(C)[C@H]3C[C@H](O)[C@]12C | – | – | human, plasma | baseline | – | mean daily plasma concentration | 253 ± 70 nM |
| CCCCc1ccc(-c2ccc(C#N)cc2)cc1 | – | – | human mother-newborn pairs, cord serum | – | – | mean serum concentration | 0.23 ng/mL |
| Cn1cc(-c2cn3nccc3c(-c3cnn([C@]4(CC#N)C[C@@H](C#N)C4)c3)n2)cn1 | – | – | healthy humans fasted, plasma | 30 mg single dose, geometric mean | – | mean residence time | 17 h |
| O=S(=O)(O)Oc1cc(O)cc(/C=C/c2ccc(O)cc2)c1 | – | – | human, plasma | – | – | mean concentration | 2060 nM |
| C[C@H](CCC(=O)O)[C@H]1CC[C@H]2[C@@H]3CC[C@@H]4C[C@H](OS(=O)(=O)O)CC[C@]4(C)[C@H]3CC[C@]12C | – | – | human, plasma | control | – | mean daily plasma concentration | 308 ± 21 nM |
| Cc1ccc(Sc2ccccc2N2CCNCC2)c(C)c1 | – | – | healthy male humans fasted, plasma | oral, 10 mg single | – | mean Cmax | 3.9 ng/mL |
| Cn1cnc2c(F)c(Nc3ccc(Br)cc3Cl)c(C(=O)NOCCO)cc21 | – | population PK model | human, plasma | oral, transit compartment absorption model, fasted | – | mean transit time | 0.76 h |
| C=CC(=O)N(C)CCOc1c(N)ncnc1-c1cc(F)cc(NC(=O)c2ccc(C3CC3)cc2F)c1C | – | – | human, whole blood | oral, 400 mg, single ascending dose | – | mean residence time | 3.76 h |
| CCCC1CCC(c2ccc(-c3ccc(CC)cc3)cc2)CC1 (centres unmarked) | – | – | human mother-newborn pairs, cord serum | – | – | mean serum concentration | 0.66 ng/mL |
| Cc1cn([C@H]2C[C@H](N=[N+]=[N-])[C@@H](COP(=O)(O)OP(=O)(O)O)O2)c(=O)[nH]c1=O | – | refers to: phosphorylated zidovudine metabolites | human, peripheral blood mononuclear cells | 600 mg zidovudine, single dose | – | mean residence time | 14.3 ± 6.35 h |

| SMILES | target or system | test | system | setting | how to read | measurement | result |
| --- | --- | --- | --- | --- | --- | --- | --- |
| C[C@H](CCC(=O)O[C@@H]1O[C@H](C(=O)O)[C@@H](O)[C@H](O)[C@H]1O)[C@H]1CC[C@H]2[C@@H]3[C@H](O)C[C@@H]4C[C@H](O)CC[C@]4(C)[C@H]3CC[C@]12C | – | – | human, plasma | control | – | mean daily plasma concentration | 20.9 ± 2.2 nM |
| C[C@@H](O)CCOC(=O)C[C@@H](C)O | – | – | human | oral drink, dose not given, 90 min post dose, mean | – | mean arterial pressure | 81 mmHg |
| CCCOc1ccc(-c2ccc(C#N)cc2)cc1 | – | – | human mother-newborn pairs, female, maternal serum | – | – | mean serum concentration | 0.73 ng/mL |
| O=C(CCl)c1ccc2c(c1)-c1ccccc1C2 | UCHL1 | covalent, intact protein LC-MS | – | 12.5 µM | – | labelling | 18.9% |
| C[C@H](CCC(=O)NCC(=O)O)[C@H]1CC[C@H]2[C@@H]3CC[C@@H]4C[C@H](O)CC[C@]4(C)[C@H]3CC[C@]12C | – | – | human, plasma | control | – | mean daily plasma concentration | 32.4 ± 9.1 nM |
| O=C(CCl)c1ccc(CC(=O)N2CCOCC2)s1 | UCHL1 | covalent, intact protein LC-MS | – | 12.5 µM | – | labelling | 21.6% |
| CCc1ccc(C(=O)Oc2ccc(C#N)c(F)c2)cc1 | – | – | human mother-newborn pairs, female, maternal serum | – | – | mean serum concentration | 2.76 ng/mL |
| COc1cc(C(=O)O)ccc1NC(=O)[C@@H]1N[C@@H](CC(C)(C)C)[C@](C#N)(c2ccc(Cl)cc2F)[C@H]1c1cccc(Cl)c1F | – | – | human, plasma | 400 mg, steady state, with: venetoclax 400 mg | – | mean Ctrough | 3890 ng/mL |
| CCCCCc1ccc(C(=O)Oc2ccc(C#N)c(F)c2)cc1 | – | – | human mother-newborn pairs, cord serum | – | – | mean serum concentration | 0.64 ng/mL |
| NC[C@@]1(CC(=O)O)[C@@H]2CC[C@H]3C[C@@H]2[C@@H]1C3 | – | – | human, severe renal impairment, plasma | oral, 20 mg single dose, geometric mean | – | mean residence time | 16.5 h |
| Cc1cc(C(=O)N(C)CC2CCCN(CCc3ccc(F)cc3)C2)c(C)o1 (centres unmarked) | Trypanosoma cruzi | reporter translation, Renilla luciferase mRNA translation | cell-free extract | 40 µM | baseline: DMSO | inhibition | -3.4% |
| CCCCOc1ccc([C@H]2CC[C@H](CCC)CC2)c(F)c1F | – | – | human mother-newborn pairs, cord serum | – | – | mean serum concentration | 7.51 ng/mL |
| C[C@H](CCC(=O)NCC(=O)O)[C@H]1CC[C@H]2[C@@H]3CC[C@@H]4C[C@H](OS(=O)(=O)O)CC[C@]4(C)[C@H]3CC[C@]12C | – | – | human, plasma | control | – | mean daily plasma concentration | 832 ± 171 nM |
| N#Cc1ccc2c(c1)[C@H]1CCCN(C(=O)c3ccc4[nH]cnc4c3)[C@H]1C2 | – | – | human | 40 mg, day 7 | – | mean ACTH level | 6.6 pmol/L |
| O=C(O)CCCCCCCCCCCCC(=O)O | – | – | human, plasma | control | – | mean daily plasma concentration | 58.6 ± 14.1 nM |
| CCNCCCNC/C=C\CNCCCNCC | – | LC-MS/MS | human cancer patients, plasma | intravenous infusion 60 min, 100 mg, median, cycle 1 | – | mean residence time | 1.18 h |

Some of these lines once more:
| SMILES | target or system | test | system | setting | how to read | measurement | result |
| --- | --- | --- | --- | --- | --- | --- | --- |
| Cc1cc(C(=O)N(C)CC2CCCN(CCc3ccc(F)cc3)C2)c(C)o1 (centres unmarked) | Trypanosoma cruzi | reporter translation, Renilla luciferase mRNA translation | cell-free extract | 40 µM | baseline: DMSO | inhibition | -3.4% |
| CCCCOc1ccc([C@H]2CC[C@H](CCC)CC2)c(F)c1F | – | – | human mother-newborn pairs, cord serum | – | – | mean serum concentration | 7.51 ng/mL |
